# Measured values pooled from the literature.
# Protocols differ between the studies behind these lines. “And” joins repeats or separate records; there may be more than shown.
# ABL1 non-phosphorylated: Tyrosine-protein kinase ABL1, non-phosphorylated (ABL1, Homo sapiens, UniProt P00519)
# ABL1 T315I phosphorylated: Tyrosine-protein kinase ABL1, phosphorylated (ABL1, Homo sapiens, UniProt P00519, T315I)
# ABL1 phosphorylated: Tyrosine-protein kinase ABL1, phosphorylated (ABL1, Homo sapiens, UniProt P00519)
Structure (SMILES),target,assay,conditions,scale,remaining binding
Nc1ncc2c(n1)-c1c([nH]c3ccc(C4=CCOCC4)cc13)CCC2,"Tyrosine-protein kinase ABL1, non-phosphorylated (ABL1, Homo sapiens, UniProt P00519, F317I)","binding, competition with immobilised ligand",1 µM,,90%
Cc1ccc(-c2c(/C=C(\C#N)C(=O)NC(C)C)n(CCCO)c3ncnc(N)c23)cc1,"Tyrosine-protein kinase ABL1, phosphorylated (ABL1, Homo sapiens, UniProt P00519, F317I)","cell-free assay, competition with immobilised ligand",1 µM,,74%
CN1CCN(Cc2ccc(NC(=O)c3cccc(C#Cc4cnc(N)c5ncccc45)c3)cc2C(F)(F)F)CC1,ABL1 non-phosphorylated,"cell-free assay, competition with immobilised ligand",0.5 µM,,0.1%
CNc1ccc(-c2n[nH]c3c2CCN(C(=O)c2ccccc2)C3)cc1,"Tyrosine-protein kinase ABL1 (ABL1, Homo sapiens, UniProt P00519, T315I)","cell-free assay, competition with immobilised ligand",10 µM,,7.5%
CCN1CCN(Cc2ccc(NC(=O)c3ccc(C)c(NC(=O)c4cncc(-c5cccs5)c4)c3)cc2C(F)(F)F)CC1,"Tyrosine-protein kinase ABL1 (ABL1, Homo sapiens, UniProt P00519, E255K)","binding, competition with immobilised ligand",1 µM,,0.75%
C=CC(=O)N1CCCC(n2c(=O)c3ncccc3n(Cc3ccc(Oc4ccccc4)cc3)c2=O)C1 (stereo not drawn),ABL1 T315I phosphorylated,"cell-free assay, competition with immobilised ligand",1 µM,,90%
C=CC(=O)N1CCc2ccc(-n3c(=O)ccc4cnc5ccc(-c6cnn(C)c6)cc5c43)cc21,"Tyrosine-protein kinase ABL1, phosphorylated (ABL1, Homo sapiens, UniProt P00519, Q252H)","KINOMEscan, item: (Q252H)-phosphorylated",1 µM,baseline: control,100%
CNS(=O)(=O)Nc1nccc(Cc2c(C)c3ccc(Oc4ncccc4F)cc3oc2=O)c1F,ABL1 phosphorylated,"binding, competition with immobilised ligand",10 µM,,94%
Cc1ccc(C(=O)Nc2cccc(C(F)(F)F)c2)cc1Nc1cncc(C(N)=O)c1,"Tyrosine-protein kinase ABL1 (ABL1, Homo sapiens, UniProt P00519, M351T)","binding, competition with immobilised ligand",1 µM,,27%
COc1c(Cl)cccc1Nc1c(-c2ccncc2C#C[C@@]2(C)CCCN2C(=O)/C=C/CN(C)C)[nH]c2c1C(=O)NCC2,"Tyrosine-protein kinase ABL1 (ABL1, Homo sapiens, UniProt P00519, F317I)",KINOMEscan competition binding,3 µM,baseline: control,74% and 96%
CC(C)=CC1OC(C)(C)C2C=C3C(=O)C(Cl)=CC(O)C3C3C(O)C4OC4C(=O)C132 (stereo not drawn),ABL1 phosphorylated,"cell-free assay, competition with immobilised ligand",10 µM,,66%
CNC(=O)C1CCN(c2cc(C)c(F)cc2NC(=O)c2ccc(-c3cc(O)ccc3C)c(C)c2)CC1,"Tyrosine-protein kinase ABL1, non-phosphorylated (ABL1, Homo sapiens, UniProt P00519, F317L)","binding, competition with immobilised ligand",1 µM,,72%
COc1ccc(NC(=O)Nc2ccc3c(c2)C(=O)N(C(C)CO)CC(C)C(CN(C)Cc2ccc4c(c2)OCO4)O3)cc1 (stereo not drawn),ABL1 non-phosphorylated,"binding, competition with immobilised ligand",10 µM,,100%
CC(=O)N1c2ccc(-c3ccc(CNC(=O)c4cn5cc(-c6cnc(N)nc6)nc(N6CCOCC6)c5n4)cc3)cc2CC[C@@H]1C,ABL1 phosphorylated,KINOMEscan,10 µM,,62%
C=C1CCCCCCCCCC(CO)C1=O (stereo not drawn),ABL1 T315I phosphorylated,"cell-free assay, competition with immobilised ligand",10 µM,,100%
